Measured values of several laboratories.
A part holds a random share of what one study measured.
Sequence of UniProt Q8NEB9 (whole entry, looked up): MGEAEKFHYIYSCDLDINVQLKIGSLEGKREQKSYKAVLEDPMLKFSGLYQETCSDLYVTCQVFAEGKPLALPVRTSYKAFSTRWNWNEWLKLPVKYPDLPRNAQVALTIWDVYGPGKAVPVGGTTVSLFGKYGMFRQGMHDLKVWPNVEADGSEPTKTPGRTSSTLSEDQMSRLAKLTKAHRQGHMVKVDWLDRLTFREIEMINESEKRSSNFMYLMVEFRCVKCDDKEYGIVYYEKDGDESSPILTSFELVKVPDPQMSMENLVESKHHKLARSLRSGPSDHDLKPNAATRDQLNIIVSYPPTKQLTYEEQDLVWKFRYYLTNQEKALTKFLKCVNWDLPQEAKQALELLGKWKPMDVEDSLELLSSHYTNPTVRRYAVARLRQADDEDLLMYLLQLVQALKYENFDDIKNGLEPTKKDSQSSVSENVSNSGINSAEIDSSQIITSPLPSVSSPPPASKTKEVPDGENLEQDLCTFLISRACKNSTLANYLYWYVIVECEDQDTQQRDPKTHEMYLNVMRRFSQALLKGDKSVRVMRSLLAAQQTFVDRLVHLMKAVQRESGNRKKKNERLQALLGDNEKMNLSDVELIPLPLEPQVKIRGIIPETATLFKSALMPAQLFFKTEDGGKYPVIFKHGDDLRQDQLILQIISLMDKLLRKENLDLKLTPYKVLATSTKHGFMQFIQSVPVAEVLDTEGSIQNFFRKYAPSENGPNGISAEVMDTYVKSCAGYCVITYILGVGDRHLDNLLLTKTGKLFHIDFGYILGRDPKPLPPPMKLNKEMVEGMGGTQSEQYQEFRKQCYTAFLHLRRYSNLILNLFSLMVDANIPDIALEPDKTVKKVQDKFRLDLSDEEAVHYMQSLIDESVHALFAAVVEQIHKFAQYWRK
Sequence of UniProt P51817 (whole entry, looked up): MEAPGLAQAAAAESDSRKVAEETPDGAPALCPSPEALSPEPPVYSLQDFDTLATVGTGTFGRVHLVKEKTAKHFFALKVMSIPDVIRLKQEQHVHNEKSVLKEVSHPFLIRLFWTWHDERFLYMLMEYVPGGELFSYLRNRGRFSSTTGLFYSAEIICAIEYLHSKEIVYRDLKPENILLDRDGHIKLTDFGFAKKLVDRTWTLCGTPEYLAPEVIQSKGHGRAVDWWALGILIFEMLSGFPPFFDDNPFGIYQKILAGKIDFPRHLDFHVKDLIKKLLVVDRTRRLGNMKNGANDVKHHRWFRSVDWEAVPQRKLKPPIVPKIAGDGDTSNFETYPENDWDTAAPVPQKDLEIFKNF
Sequence of UniProt P14616 (whole entry, looked up): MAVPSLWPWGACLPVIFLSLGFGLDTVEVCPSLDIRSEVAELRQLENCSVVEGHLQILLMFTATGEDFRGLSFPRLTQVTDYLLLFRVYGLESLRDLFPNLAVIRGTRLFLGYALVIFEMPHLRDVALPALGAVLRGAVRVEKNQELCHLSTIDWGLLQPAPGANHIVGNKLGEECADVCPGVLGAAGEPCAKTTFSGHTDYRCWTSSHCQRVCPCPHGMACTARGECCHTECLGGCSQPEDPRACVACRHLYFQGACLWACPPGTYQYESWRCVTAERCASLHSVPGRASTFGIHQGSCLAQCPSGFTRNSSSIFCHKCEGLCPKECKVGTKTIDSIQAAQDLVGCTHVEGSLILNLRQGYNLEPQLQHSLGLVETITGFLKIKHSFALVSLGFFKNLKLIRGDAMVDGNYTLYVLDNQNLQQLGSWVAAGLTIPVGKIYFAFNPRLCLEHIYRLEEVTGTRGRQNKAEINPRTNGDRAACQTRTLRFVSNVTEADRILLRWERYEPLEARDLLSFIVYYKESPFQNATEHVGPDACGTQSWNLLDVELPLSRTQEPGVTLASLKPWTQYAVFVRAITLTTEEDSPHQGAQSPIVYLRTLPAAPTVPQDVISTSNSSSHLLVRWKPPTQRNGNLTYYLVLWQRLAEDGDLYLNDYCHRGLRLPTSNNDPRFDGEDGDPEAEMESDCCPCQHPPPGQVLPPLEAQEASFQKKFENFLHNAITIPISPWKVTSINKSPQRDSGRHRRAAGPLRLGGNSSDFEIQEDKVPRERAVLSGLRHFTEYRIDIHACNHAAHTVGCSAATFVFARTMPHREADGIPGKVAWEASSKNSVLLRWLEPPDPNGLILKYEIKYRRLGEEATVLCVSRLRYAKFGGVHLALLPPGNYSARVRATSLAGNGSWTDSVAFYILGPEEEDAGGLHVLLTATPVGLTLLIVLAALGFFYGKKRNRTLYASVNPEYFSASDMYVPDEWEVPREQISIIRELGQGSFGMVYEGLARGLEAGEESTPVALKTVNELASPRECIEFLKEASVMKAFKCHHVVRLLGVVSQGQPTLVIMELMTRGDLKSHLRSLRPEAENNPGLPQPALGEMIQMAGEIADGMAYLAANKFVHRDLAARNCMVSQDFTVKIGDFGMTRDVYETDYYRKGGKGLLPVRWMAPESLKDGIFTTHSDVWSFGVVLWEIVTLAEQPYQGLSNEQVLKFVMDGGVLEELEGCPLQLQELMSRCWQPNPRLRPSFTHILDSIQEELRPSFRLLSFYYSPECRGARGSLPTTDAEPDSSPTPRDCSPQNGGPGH
Sequence of UniProt O14976 (whole entry, looked up): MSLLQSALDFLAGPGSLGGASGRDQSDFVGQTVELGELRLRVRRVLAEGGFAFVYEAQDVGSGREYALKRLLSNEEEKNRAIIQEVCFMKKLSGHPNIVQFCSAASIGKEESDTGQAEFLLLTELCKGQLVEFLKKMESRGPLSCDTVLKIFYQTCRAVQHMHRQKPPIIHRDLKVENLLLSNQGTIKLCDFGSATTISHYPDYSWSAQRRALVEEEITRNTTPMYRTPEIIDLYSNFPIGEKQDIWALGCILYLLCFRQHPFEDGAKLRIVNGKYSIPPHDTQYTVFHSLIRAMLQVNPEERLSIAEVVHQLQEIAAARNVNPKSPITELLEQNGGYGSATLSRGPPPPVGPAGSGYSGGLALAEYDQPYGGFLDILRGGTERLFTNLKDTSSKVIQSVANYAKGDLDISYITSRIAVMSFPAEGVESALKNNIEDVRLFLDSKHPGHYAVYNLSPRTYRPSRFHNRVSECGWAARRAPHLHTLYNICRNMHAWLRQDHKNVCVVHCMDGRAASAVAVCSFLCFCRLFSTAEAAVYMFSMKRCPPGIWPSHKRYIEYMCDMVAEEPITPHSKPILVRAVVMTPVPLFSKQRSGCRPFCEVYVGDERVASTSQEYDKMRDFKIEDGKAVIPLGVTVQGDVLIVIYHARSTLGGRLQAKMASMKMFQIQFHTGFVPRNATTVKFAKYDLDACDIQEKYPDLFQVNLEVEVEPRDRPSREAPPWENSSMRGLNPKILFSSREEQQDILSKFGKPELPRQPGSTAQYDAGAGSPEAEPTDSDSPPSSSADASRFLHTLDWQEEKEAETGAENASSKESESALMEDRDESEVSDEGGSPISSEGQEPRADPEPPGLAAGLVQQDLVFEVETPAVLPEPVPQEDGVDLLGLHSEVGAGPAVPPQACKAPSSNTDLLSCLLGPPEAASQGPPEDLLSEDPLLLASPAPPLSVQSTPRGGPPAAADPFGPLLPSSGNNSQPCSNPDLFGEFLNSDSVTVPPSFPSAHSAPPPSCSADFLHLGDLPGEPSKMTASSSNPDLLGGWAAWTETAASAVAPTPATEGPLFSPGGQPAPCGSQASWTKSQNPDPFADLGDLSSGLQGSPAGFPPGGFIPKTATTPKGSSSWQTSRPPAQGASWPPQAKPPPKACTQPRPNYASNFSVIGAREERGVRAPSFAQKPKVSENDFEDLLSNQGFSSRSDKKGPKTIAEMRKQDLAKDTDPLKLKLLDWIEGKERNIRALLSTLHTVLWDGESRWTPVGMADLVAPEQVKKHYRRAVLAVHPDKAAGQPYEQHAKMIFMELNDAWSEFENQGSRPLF
Sequence of UniProt Q9UQ88 (whole entry, looked up): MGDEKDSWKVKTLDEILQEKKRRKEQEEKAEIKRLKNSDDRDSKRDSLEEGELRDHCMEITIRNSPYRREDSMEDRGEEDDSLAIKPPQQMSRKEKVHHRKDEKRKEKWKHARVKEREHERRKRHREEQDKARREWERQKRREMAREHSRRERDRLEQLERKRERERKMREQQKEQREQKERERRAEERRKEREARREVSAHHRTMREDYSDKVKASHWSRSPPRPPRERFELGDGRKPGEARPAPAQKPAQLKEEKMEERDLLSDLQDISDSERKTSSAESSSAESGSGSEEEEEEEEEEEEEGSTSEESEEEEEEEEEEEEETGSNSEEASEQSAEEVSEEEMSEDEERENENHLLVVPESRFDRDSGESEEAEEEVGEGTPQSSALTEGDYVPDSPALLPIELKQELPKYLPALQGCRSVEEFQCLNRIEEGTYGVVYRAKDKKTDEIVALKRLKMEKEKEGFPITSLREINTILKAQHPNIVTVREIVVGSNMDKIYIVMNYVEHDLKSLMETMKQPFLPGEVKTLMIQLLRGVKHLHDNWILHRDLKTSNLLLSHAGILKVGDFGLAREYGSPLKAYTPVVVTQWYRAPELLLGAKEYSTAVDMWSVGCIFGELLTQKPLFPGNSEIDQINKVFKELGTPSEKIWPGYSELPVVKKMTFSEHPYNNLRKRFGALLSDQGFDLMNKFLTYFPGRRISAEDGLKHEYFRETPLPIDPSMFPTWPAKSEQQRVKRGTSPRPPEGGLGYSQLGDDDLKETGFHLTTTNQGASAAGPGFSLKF

Study 1 — technique: protein-binding microarray; form: double-stranded DNA, one strand shown; medium: in vitro; concentration: not given; reading: higher = stronger binding
Target: Myc proto-oncogene protein, bHLH-zipper, MAX partner unstated (MYC, Homo sapiens, UniProt P01106, residues 368-449)
Sequence of UniProt P01106 (368-449, looked up): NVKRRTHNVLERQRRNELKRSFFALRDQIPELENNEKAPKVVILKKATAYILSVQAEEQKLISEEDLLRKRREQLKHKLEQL
Setting: k-mer, scored over probes, only values ≥0.25
Strand | E-score
AAACATGC | 0.358
CATGTTAC | 0.281
AAACCACG | 0.411
ACATGCGG | 0.465
CGTGCCTC | 0.329
ATGGCGGG | 0.252
CATGCGAC | 0.411
GGCGTGAC | 0.314

Study 2 — observed: enzyme activity; mode: inhibitor; concentration: 0.5 µM; reference: control
Target: Calcium/calmodulin-dependent protein kinase type 1B (PNCK, Homo sapiens, UniProt Q6P2M8)
Sequence of UniProt Q6P2M8 (whole entry, looked up): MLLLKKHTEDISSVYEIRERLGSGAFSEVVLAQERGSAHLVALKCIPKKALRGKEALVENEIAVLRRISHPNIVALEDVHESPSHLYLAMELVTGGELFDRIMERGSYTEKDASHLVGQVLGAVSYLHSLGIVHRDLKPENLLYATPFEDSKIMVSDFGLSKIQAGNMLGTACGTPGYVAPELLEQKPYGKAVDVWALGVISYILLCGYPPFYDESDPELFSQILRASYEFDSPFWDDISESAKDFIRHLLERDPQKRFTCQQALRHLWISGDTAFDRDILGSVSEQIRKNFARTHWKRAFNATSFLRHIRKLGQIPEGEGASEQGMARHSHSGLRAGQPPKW
Structure (SMILES) | remaining activity [%]
O=C(O)c1ccc2c3c1cccc3c(=O)n1c3ccccc3nc21 | 101
CN(C)c1ccc(C=C2C(=O)Nc3ccccc32)cc1 | 102
OCC(O)CCON=C1C(c2c(O)[nH]c3ccccc23)=Nc2ccccc21 (centres unmarked) | 101
Cn1c2ccccc2c2c3c(c4c5ccccc5n(CCC#N)c4c21)CNC3=O | 103
COc1cc2nccc(Oc3ccc(NC(=S)NC(=O)c4ccccc4C)cc3)c2cc1OC | 93.2
CC(C)[C@H](CO)Nc1nc(Nc2cc(N)cc(Cl)c2)c2ncn(C(C)C)c2n1 | 132
Cc1ccc(NC(=O)c2ccc(CN3CCN(C)CC3)cc2)cc1Nc1nc(-c2cccnc2)cs1 | 97
O=C1NC(=O)C(c2cn(CCCn3ccnc3)c3ccccc23)=C1Nc1ccccc1 | 90.6
O=c1c2ccccc2[nH]c(=S)n1CCN1CCC(=C(c2ccc(F)cc2)c2ccc(F)cc2)CC1 | 109
Nc1ncnc2n[nH]c(Nc3ccc(F)cc3)c12 | 98.4
O=C(Nc1cccc(Nc2cc(Nc3cccc(C(F)(F)F)c3)ncn2)c1)C1CC1 | 101
Cc1ccc(Nc2nccc(N(C)c3ccc4c(C)n(C)nc4c3)n2)cc1S(N)(=O)=O | 95.9

Study 3 — technique: competition with immobilised ligand; concentration: 1 µM
Structure (SMILES): CN([C@@H]1CCc2c(CC(=O)O)c3ccccc3n2C1)S(=O)(=O)c1ccc(F)cc1
target | observed | remaining binding [%]
EGFR (Homo sapiens, UniProt P00533, L858R/T790M) | cell-free assay | 100
CDK11A (Homo sapiens, UniProt Q9UQ88) | binding | 100
FLT3 (Homo sapiens, UniProt P36888, D835V) | cell-free assay | 94
RIPK4 (Homo sapiens, UniProt P57078) | cell-free assay | 85
FLT3 (Homo sapiens, UniProt P36888, D835Y) | cell-free assay | 100
EGFR (Homo sapiens, UniProt P00533, del747-752/P753S) | cell-free assay | 95
PIK3C3 (Homo sapiens, UniProt Q8NEB9) | cell-free assay | 97
PRKX (Homo sapiens, UniProt P51817) | cell-free assay | 100
GAK (Homo sapiens, UniProt O14976) | cell-free assay | 100
INSRR (Homo sapiens, UniProt P14616) | cell-free assay | 100
ABL2 (Homo sapiens, UniProt P42684) | cell-free assay | 100
KDR (Homo sapiens, UniProt P35968) | cell-free assay | 82
STK39 (Homo sapiens, UniProt Q9UEW8) | cell-free assay | 100

Study 4 — technique: RNA Bind-n-Seq; form: RNA; medium: in vitro; concentration: 365 nM; reference: no-protein control; reading: higher = stronger binding
Target: RNA binding protein fox-1 homolog 2, RRM domain, GST-SBP tag (RBFOX2, Homo sapiens, UniProt O43251-10, residues 100-194)
Setting: natural RNA segment, single round, ends assumed
All sequences stand within: GGGAGUUCUACAGUCCGACGAUC … UGGAAUUCUCGGGUGCCAA
Target sequence (chain): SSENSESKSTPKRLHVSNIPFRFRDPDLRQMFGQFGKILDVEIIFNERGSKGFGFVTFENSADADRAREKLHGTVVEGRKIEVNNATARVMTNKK
Strand | RBNS enrichment (R)
CUGUUCUCCUCCCCAAGUCGGCACCCUUUAACUCAUGAGGAGGGAAAAGAGUGCCUAAGCGGGGGUGAAAGAGGACGUGUUACCCACUGCCAUGCACCAGGACUGGCUGU | 0.37
AUUUCACCUACUAUUUCUGAAUAUAUUUUGCAAAUUGAAUUGGAAUAGGAAUUGAUAAUAGCAGUCUUAAACAUUAGUAGUGGGAUUUGGCUAUGGUCCAGACUGUGCUC | 0.407
ACGGAUCCUGCCGAGAGCCACGGACAUGUGGUUACAGAGGCGCAGGAGGGGAUCCACACAGCUGCAACGUGAGGACAGAAUCAGUGCUGUGAAUGACAGCCUGCCACUCC | 0.678
CAGACACAAACAGGCCCAUAGCCUCUCCUCUGCUGUUAGAGCAAUGCAGCUGGGCCCAGAACACCCAUGAUGAGGUUCACUGCGUCUACCCUGCACCUCGCACAGAACCA | 0.654
GAAUUUGUAUUGCUUGAUAAACUAUUAGCUUGUAAAUUAAAAUUUUUUUCUUUACCUCAGUUAACUUAAGUAAUGGACCAAUAAACCUAUCAAAGCUGCUUCAUUUCUUC | 0.729
GACCCAUUCAAGGCUAGCACAGUUAAGAGAACUUCAGCUAAUUCUUAUUUUCCUGAGUUAGAUCCCAGCCCAUGCCCAGCUGGAAGGGUCUCUUUUGGGUCAAAAUCAGU | 0.301
GCCACCUUGCCCACCGCAUGACCCCUUGUGCCAGUCGCGCAGCUGUGUGUGGUGUCGCGCCCUCUCCCCUUGGGGGCUGGGUGGGCACACCCUCCCCUCUUGUCUACUCA | 0.64
UUAAAGGUUUUCUCUAACUUCUCAAGUCCCUUGUUUUGUGUUGUGUCUGUGGGGAGGGGUUGUUUUGGGGUUGUUUUUGUUUUUUCUUGCCAGGUAGAUAAAACUGACAU | 3.75
